Assay results pooled from the literature.
Compare with care: the assays were run in different laboratories.

Cn1cnc(Cn2ccc3ccc(CNCc4[nH]c5ccccc5c4C4NC(=O)c5ccc(O)cc54)cc32)c1 (stereo not drawn) — IC50 (NCI-H441; cell growth or viability, ATP luminescence; 72 h): > 30 µM
Cc1ccc(-c2nc(-c3cccnc3)[nH]c2-c2ccc(C)cc2)cc1 — IC50 (BT-474; cell growth or viability, SRB; 48 h): 42.4 µM
COc1ccc2cc3[n+](cc2c1OCc1cn(Cc2c(Cl)cc(Cl)cc2Cl)nn1)CCc1cc2c(cc1-3)OCO2 — IC50 (SMMC-7721; cell growth or viability, MTT): 18.7 µM
Cc1ccc2nc(Cl)c(-c3nc4ccccc4[nH]3)cc2c1 — IC50 (BEL-7404; cell growth or viability, MTT; 48 h): > 100 µM
COc1c(OC(C)=O)cc2oc3cc(OC(C)=O)c(CC=C(C)C)c(O)c3c(=O)c2c1CC=C(C)C — IC50 (SMMC-7721; cell growth or viability; 48 h): 13.6 µM
COC(=O)[C@@H](Cc1cn(Cc2ccc(C#N)cc2)nn1)NC(=O)OCC1c2ccccc2-c2ccccc21 — IC50 (BXPC-3; cell growth or viability, MTS; 72 h): 9.16 µM
COc1ccc(/N=N/C(=S)N2CCOCC2)cc1 — IC50 (human Fibroblast; cell growth or viability, resazurin; 48 h): > 50 µM
N=C(N)NCCC[C@@H](N)C(=O)N[C@@H](CC(=O)N[C@H](Cc1ccccc1)C(N)=O)c1ccc2ccccc2c1 — IC50 (BT-474; cell growth or viability, ATP luminescence; 72 h): 1.17 µM
CN1CCN(Cc2ccc(-c3ccc4[nH]c5ncc(/C=C/c6ccccc6)cc5c4c3)cc2)CC1 — IC50 (Ba/F3 NPM-ALK; cell proliferation, [3H]-thymidine incorporation): 2.5 µM
O=C1NCCN1CC(O)Cn1c2ccc(F)cc2c2cc(F)ccc21 (stereo not drawn) — IC50 (U2OS Per2-dLuc; Per2 reporter gene, repressor): ≤ 1 µM
CO[C@@H]1[C@@H](O[C@@H]2O[C@H](C)[C@@H](O[C@H]3C[C@@](C)(O)[C@@H](OC(=O)C4CCCCC4)[C@H](C)O3)[C@H](N(C)C)[C@H]2O)[C@@H](CC=O)C[C@@H](C)[C@@H](O[C@H]2CC[C@H](N(C)C)[C@@H](C)O2)/C=C/C=C/C[C@@H](C)OC(=O)C[C@H]1O — IC50 (GES1; cell growth or viability, CCK-8; 72 h): 14.5 µM
Cc1cc2nc(-c3cc4ccccc4nc3Cl)[nH]c2cc1C — IC50 (L02; cell growth or viability, MTT; 48 h): > 100 µM
CC(=O)[O][Pt]1([O]C(C)=O)[O]C(=O)C(=O)[O]1.NC1CCCCC1N — IC50 (five cancer cell lines; cytotoxicity; mean over panel): 33.2 µM
Clc1ccc2[nH]c(-c3cc4cc5c(cc4nc3Cl)OCO5)nc2c1 — IC50 (BEL-7404; cell growth or viability, MTT; 48 h): > 100 µM
c1ccc(-c2nc(-c3cccnc3)[nH]c2-c2ccccc2)cc1 — IC50 (BT-474; cell growth or viability, SRB; 48 h): 57.6 µM

A few entries again:
Cc1ccc(-c2nc(-c3cccnc3)[nH]c2-c2ccc(C)cc2)cc1 — IC50 (BT-474; cell growth or viability, SRB; 48 h): 42.4 µM
